# Published values collected from several papers.
# Values joined by “and” are separate records of one study, mostly repeats; a detail may differ. ± marks the error that the study gave.
# Technique: steady-state kinetics
# B1: enzyme E217L/L163H/N249W (Thermobifida fusca, UniProt Q47RK4); chain MTDVYILDAVRTPFGRYGGALSGIRPDDLAAHVLRALAERSPGLDPAAVDDVFFGDANGAGEDNRNVARMAALLAGWPTSVPGVTLNRLCGSGMESVIAANRAIAVGDASLAVAGGVESMSRAPWVLPKPAQGFPTGHETLYSTTLGWRMVNPAMPEQWTVSHGESTEQVAATYGISRAEQDAFALRSHERAARAWAEGVFDAEITQIPGAELERDLSIRETSAEKLAALKPAFRPDGTITAGNASPLWDGAAALLIGDAAAAERVGREPLARIVSRGVAAVDPDVFGIGPVQAAEIALRRAGIGWDDLSVVELNEAFAAQSLACLKLWPDLDPEIVNPNGGAIAIGHPLGASGARIVGTLAHELHRRGGGWGLAAICIGVGQGLAVVLHR
# B2: enzyme D233E (Acetivibrio thermocellus, UniProt A3DJ38); chain MKLTIPELSLVVLIGSSGSGKSTFAKKHFKPTEVISSDFCRGLVSDDENDQTVTGAAFDVLHYIVSKRLQLGKLTVVDATNVQESARKPLIEIAKDYHCFPVAVVFNLPEKVCQERNKNRTDRQVEEYVIRKHTQQLKKSIKGLQREGFRYVYILNSPEEVEEVVFERQPLWNNKKDEHGPFDIIGDIHGCYDELKMLLEKLGYLIEEVEGGVGSGKYRVTHPEGRKVLFLGELVDRGPKITEVLKLVMGMVKSGIALCVPGNHDVKLLRKLNGRDVQITHGLDRTLEQLAKEPQEFIEEVKAFIDGLVSHYVLDDGKLVVAHAGMKEEFQGRGSGKVREFALYGETTGETDEYGLPVRYDWASDYRGKALVVYGHTPQAEVLKVNNTINIDTGCVFGGKLTAYRYPEREIVDVKALKTYYEPAKPFLPKEDMAERFEARTDNDILDINDVLGKKIITTRLMSSITIHEENSIAALEVMSRFAADPHWLIYLPPTMSPCETSKKEGMLEHPIEAFEYFRTRGVGKVVCEQKHMGSRAVVIVCKDSQVAEKRFGVLDGTAGICYTRTGRHFFDDMQLEAELIDRVRKVLDKSGFWGDFNTDWVCLDCELMPWSAKAQKLLEEQYSAVGISGRVVLDEAVKLLKQASLNKTVSFDVSRQTSGKNADINELLQRFTERSEMMQKYVEAYRKYCWPVNSIDDLKLAPFHILATEGKVHSDKNHIWHMDTIAKYCTQDDSLIMATNHILVDVTDAESVDKGIKWWEDLTASGGEGMVVKPYDFIVKNGRELLQPAVKCRGREYLRIIYGPEYTMDENIERLRNRAVGKKRSLALREFSLGMEALERFVRNEPLYRVHECVFGVLALESEPVDPRL
# B3: enzyme Q449A (Limosilactobacillus reuteri, UniProt Q8GP32); chain SADTNIENNDSSTVQVTTGDNDIAVKSVTLGSGQVSAASDTTIRTSANANSASSAANTQNSNSQVASSAAITSSTSSAASSNNTDSKAAQENTNTAKNDDTQKAAPANESSEAKNEPAVNVNDSSAAKNDDQQSSKKNTTAKLNKDAENVVKKAGIDPNSLTDDQIKALNKMNFSKAAKSGTQMTYNDFQKIADTLIKQDGRYTVPFFKASEIKNMPAATTKDAQTNTIEPLDVWDSWPVQDVRTGQVANWNGYQLVIAMMGIPNQNDNHIYLLYNKYGDNELSHWKNVGPIFGYNSTAVSQEWSGSAVLNSDNSIQLFYTRVDTSDNNTNHQKIASATLYLTDNNGNVSLAQVANDHIVFEGDGYYYQTYDQWKATNKGADNIAMRDAHVIEDDNGDRYLVFEASTGLENYAGEDQIYNWLNYGGDDAFNIKSLFRILSNDDIKSRATWANAAIGILKLNKDEKNPKVAELYSPLISAPMVSDEIERPNVVKLGNKYYLFAATRLNRGSNDDAWMNANYAVGDNVAMVGYVADSLTGSYKPLNDSGVVLTASVPANWRTATYSYYAVPVAGKDDQVLVTSYMTNRNGVAGKGMDSTWAPSFLLQINPDNTTTVLAKMTNQGDWIWDDSSENLDMIGDLDSAALPGERDKPVDWDLIGYGLKP
# B4: CPN1 (Homo sapiens, UniProt P15169); chain VTFRHHRYDDLVRTLYKVQNECPGITRVYSIGRSVEGRHLYVLEFSDHPGIHEPLEPEVKYVGNMHGNEALGRELMLQLSEFLCEEFRNRNQRIVQLIQDTRIHILPSMNPDGYEVAAAQGPNKPGYLVGRNNANGVDLNRNFPDLNTYIYYNEKYGGPNHHLPLPDNWKSQVEPETRAVIRWMHSFNFVLSANLHGGAVVANYPYDKSFEHRVRGVRRTASTPTPDDKLFQKLAKVYSYAHGWMFQGWNCGDYFPDGITNGASWYSLSKGMQDFNYLHTNCFEITLELSCDKFPPEEELQREWLGNREALIQFLEQVHQGIKGMVLDENYNNLANAVISVSGINHDVTSGDHGDYFRLLLPGIYTVSATAPGYDPETVTVTVGPAEPTLVNFHLKRSIPQVSPVRRAPSRRHGVRAKVQPQARKKEMEMRQLQRGPA
# B5: protein E27A (uncultured bacterium HF130_AEPn_1, UniProt D0E8I5); chain MSLSNSSKVSVLISLLEKSRDLDYIGAAINQLEHSLQCAYFAQRSGADNEMVLAALLHDLGHYCNDTSFEDMGGYGVWQHEKVGADYLRGLGFSERVACLIEGHVAAKRYLVSSKASYLKNLSDASRKTLEYQGGPMDEGERRLFEEREDFKDCLKIRAWDEKGKQTDLKVPGPEHYRKMMEEHLSENQN
# B6: nitrilase (Rhodococcus rhodochrous, UniProt A4LA85); chain MVEYTNTFKVAAVQAQPVWFDAAKTVDKTVSIIAEAARNGCELVAFPEVFIPGYPYHIWVDSPLAGMAKFAVRYHENSLTMDSPHVQRLLDAARDHNIAVVVGISERDGGSLYMTQLIIDADGQLVARRRKLKPTHVERSVYGEGNGSDISVYDMPFARLGALNCWEHFQTLTKYAMYSMHEQVHVASWPGMSLYQPEVPAFGVDAQLTATRMYALEGQTFVVCTTQVVTPEAHEFFCENEEQRKLIGRGGGFARIIGPDGRDLATPLAEDEEGILYADIDLSAITLAKQAADPVGHYSRPDVLSLNFNQRRTTPVNTPLSTIHATHTFVPQFGALDGVRELNGADEQRALPSTHSDETDRATASI
Molecule,substrate,conditions,kcat
pyc R472S (Rhizobium etli),Nc1ncnc2c1ncn2[C@@H]1O[C@H](COP(=O)(O)OP(=O)(O)OP(=O)(O)O)[C@@H](O)[C@H]1O,"pH 7.8, 30 °C",2 ± 0.2 s⁻¹
B1 (enzyme E217L/L163H/N249W),CC(C)(COP(=O)(O)OP(=O)(O)OC[C@H]1O[C@@H](n2cnc3c(N)ncnc32)[C@H](O)[C@@H]1OP(=O)(O)O)[C@@H](O)C(=O)NCCC(=O)NCCSC(=O)CC(=O)O,"pH 7.4, 37 °C",0.003 ± 0.0035 s⁻¹
"OXA-48 (Klebsiella pneumoniae, UniProt Q6XEC0)",C[C@@H](O)[C@H]1C(=O)N2C(C(=O)O)=C(SCCN=CN)C[C@H]12,"pH 7.2, 30 °C",2.7 ± 0.2 s⁻¹
B2 (enzyme D233E),Nc1ncnc2c1ncn2[C@@H]1O[C@H](CO)[C@H]2OP(=O)(O)O[C@H]21,"pH 7.5, 45 °C",3.25 ± 0.717 s⁻¹
ω-transaminase A60V/E38Q/F86L/I154V/M128F/P9A/R417L/S87N/W58M (Pseudomonas jessenii),CCCC(=O)c1ccccc1,"pH 8, 56 °C, apparent, with: isopropylamine 1 M, PLP 0.05 mM",2.5 ± 0.2 s⁻¹
B3 (enzyme Q449A),OC[C@H]1O[C@@](CO)(O[C@H]2O[C@H](CO)[C@@H](O)[C@H](O)[C@H]2O)[C@@H](O)[C@@H]1O,"pH 5.5, 50 °C, apparent",430 s⁻¹ and 450 s⁻¹
"waaG (Escherichia coli, UniProt P25740)",O=c1ccn([C@@H]2O[C@H](CO[P@@](=O)(O)O[P@@](=O)(O)O[C@H]3O[C@H](CO)[C@@H](O)[C@H](O)[C@H]3O)[C@@H](O)[C@H]2O)c(=O)[nH]1,"pH 7.5, 25 °C, apparent",0.5 s⁻¹
B4 (CPN1),C[C@H](NC(=O)[C@H](Cc1ccccc1)NC(=O)[C@H](CCC(N)=O)NC(=O)CNC(=O)[C@@H]1CCCN1C(=O)[C@H](Cc1ccccc1)NC(=O)[C@@H](N)Cc1ccc(O)cc1)C(=O)N[C@@H](Cc1ccccc1)C(=O)N[C@@H](CO)C(=O)N[C@@H](CCCCN)C(=O)O,37 °C,80.3 ± 5 s⁻¹
B5 (protein E27A),NC[C@H](O)P(=O)(O)O,"pH 7, 25 °C, NaCl 150 mM, with: O2, Fe(II) 100 µM, ascorbate 100 µM",0.28 s⁻¹ and 0.25 s⁻¹
B6 (nitrilase),N#CCCCC#N,"pH 7.5, 25 °C",0.000288 ± 5e-06 s⁻¹

# Excerpt of the above:
Molecule,substrate,conditions,kcat
pyc R472S (Rhizobium etli),Nc1ncnc2c1ncn2[C@@H]1O[C@H](COP(=O)(O)OP(=O)(O)OP(=O)(O)O)[C@@H](O)[C@H]1O,"pH 7.8, 30 °C",2 ± 0.2 s⁻¹
